Measured values collected from several papers.
Each numbered part is a random draw from the data of one study; scales do not carry over between parts. Substitutions count along the parent as printed.

Sample 1 — technique: protein binding microarray; form: double-stranded DNA, one strand shown; medium: in vitro; concentration: not given; baseline: not given; direction: higher = stronger binding
Target: Histone acetyltransferase KAT6A, both winged helices, GST fusion (KAT6A, Homo sapiens, UniProt Q92794, residues 1-181)
Setting: 8-mer, flanks averaged, mean of 2 arrays, mostly near background
Target sequence (chain): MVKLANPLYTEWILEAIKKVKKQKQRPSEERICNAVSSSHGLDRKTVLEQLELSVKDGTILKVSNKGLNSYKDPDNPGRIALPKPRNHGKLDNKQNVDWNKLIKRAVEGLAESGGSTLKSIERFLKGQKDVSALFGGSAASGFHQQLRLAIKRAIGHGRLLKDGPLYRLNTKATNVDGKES
`ACACCCCG` gave an E-score of 0.133.
`GTGCAATA` gave an E-score of -0.152.
`ACGTGTTA` has an E-score of 0.0261.
For `ATTGTTTC`, the E-score was 0.0886.
For `AATAAGGA`, the E-score was -0.259.
`CCTAATGA` gave an E-score of -0.247.
`ATGCCCGA` has an E-score of -0.0883.
With `ATTTTCCG` the E-score was 0.204.
The E-score of `AACACATT` is reported as 0.00567.

Sample 2 — technique: protein-binding microarray; form: double-stranded DNA, one strand shown; medium: in vitro; concentration: 2540 nM top; setting: 60-bp whole probe; with: salmon DNA 0.4 mg/ml; baseline: random background probes; direction: higher = stronger binding; shared flanks, not repeated: GCCTAGCAC … GTCTTGATTCGCTTGACGCTGCTG
Target: Interferon regulatory factor 3, full length, phosphomimetic (IRF3, Homo sapiens, UniProt Q14653, residues 1-427, S386D/S396D/S398D/S402D/T404D/S405D)
Residues (chain): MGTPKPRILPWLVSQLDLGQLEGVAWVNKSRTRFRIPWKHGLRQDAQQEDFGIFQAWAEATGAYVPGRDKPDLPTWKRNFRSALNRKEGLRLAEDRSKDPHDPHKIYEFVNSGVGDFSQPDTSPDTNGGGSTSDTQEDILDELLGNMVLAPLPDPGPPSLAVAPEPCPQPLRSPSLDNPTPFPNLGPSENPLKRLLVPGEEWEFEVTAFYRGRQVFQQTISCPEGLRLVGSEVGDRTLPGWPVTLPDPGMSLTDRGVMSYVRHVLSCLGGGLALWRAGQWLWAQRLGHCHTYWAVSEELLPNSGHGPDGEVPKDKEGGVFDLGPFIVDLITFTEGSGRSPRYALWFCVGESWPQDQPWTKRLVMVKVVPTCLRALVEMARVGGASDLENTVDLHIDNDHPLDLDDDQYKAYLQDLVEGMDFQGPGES
For `AGAGTCACCCATCTCAACAAGTGCTAG`, “fitted relative affinity” read 1.56 z-score.
For `TCAACCATCCTATGTAGAACTGTGCTA`, “fitted relative affinity” read 0.306 z-score.
`GAAGGTTTCCTACTGCTGACGTGCTAG` — result for “fitted relative affinity”: 5.05 z-score.
`TTTTAAAATGGACACTGTACAGTGCTA`: “fitted relative affinity” 1.13 z-score.
`GACGGACTGGGTCACGGGACGTGCTAG`: “fitted relative affinity” -0.704 z-score.
For `GACGGTTTCGGTATCGGCACGTGCTAG`, “fitted relative affinity” read 8.08 z-score.
`GACGATCTCAGTTTCGAGATGTGCTAG`: “fitted relative affinity” 2.62 z-score.
`GCCGATATCAGTCTCGAGACGTGCTAG`: “fitted relative affinity” 1.65 z-score.
Under “fitted relative affinity”, `AGCTATCACTATTCTAGGGAAGTGCTA` is recorded as 1.01 z-score.
`TCAACTCTCTTGTCTGGAACTGTGCTA` — result for “fitted relative affinity”: 0.278 z-score.
Under “fitted relative affinity”, `TTAGTTCTCGGTTTCGGTTAGTGCTAG` is recorded as 5.32 z-score.

Sample 3 — target: CCNF, cyclin fold, Cln2 fusion (human); technique: yeast growth competition, sequencing; medium: yeast; setting: weak parent motif; baseline: not given; direction: higher = stronger binding
Starting sequence: MASTL docking peptide (human); PMIAKNLMCELDE
Under “normalised enrichment score”, `L11Q` is recorded as 0.0919.
`C9W`: “normalised enrichment score” 0.15.
Under “normalised enrichment score”, `L7M` is recorded as -0.442.
`L11W` — result for “normalised enrichment score”: 0.261.

Single results of other studies
`PhoQ, residues 284 288 289 292 302 303 TLASMF` has a fold induction of 8.99 (PhoP, residues 12 14 15 18 19 NQFFI (Escherichia coli, UniProt P23836); Sort-seq, refers to: YFP reporter; E. coli; PhoQ-PhoP variant library, with: 10 µM Mg2+; baseline: high Mg2+ state, higher = stronger signaling).

For quick reference, copied from above (sample 3):
Under “normalised enrichment score”, `L11Q` is recorded as 0.0919.
`C9W`: “normalised enrichment score” 0.15.
Under “normalised enrichment score”, `L7M` is recorded as -0.442.
`L11W` — result for “normalised enrichment score”: 0.261.
